# Experimental data pooled from the literature.
# Protocols differ between the studies behind these lines. ± marks the error that the study gave.
SMILES,target,test,test system,conditions,IC50
CCCC[C@H](NC(=O)[C@H](C)NC(=O)[C@H](CCC(=O)O)NC(=O)[C@H](Cc1ccccc1)NC[C@H](CC(C)C)NC(=O)[C@H](C)NC(=O)[C@@H](N)CCCNC(=N)N)C(=O)O,"Gag-Pol polyprotein, protease (gag-pol, Human immunodeficiency virus 1, UniProt P12497)","enzyme activity, inhibitor, FRET",NL4-3 wild type,,0.0782 ± 0.0117 µM
O=C(COc1ccc(Sc2ccc(OCC(=O)N/N=C/c3cccc4ccccc34)cc2)cc1)N/N=C/c1cccc2ccccc12,"Cholinesterase (BCHE, Equus caballus, UniProt P81908)","enzyme activity, inhibitor, Ellman",,,117 µM
Cc1cc(C)nc(Sc2nc3sccn3c2[N+](=O)[O-])n1,"Procathepsin L (CTSL, Homo sapiens, UniProt P07711)","enzyme activity, inhibitor, FRET",,,55.4 µM
N=C(N)NCCC[C@@H]1NC(=O)[C@H](CCCCNC(=O)CC[C@H](NC(=O)CCOCCOCCOCCOCCNC(=O)CC[C@H](NC(=O)CN2CCN(CC(=O)O)CCN(CC(=O)O)CCN(CC(=O)O)CC2)C(=O)NCCOCCOCCOCCOCCC(=O)N[C@@H](CCC(=O)NCCCC[C@@H]2NC(=O)[C@@H](Cc3ccccc3)NC(=O)[C@H](CC(=O)O)NC(=O)CNC(=O)[C@H](CCCNC(=N)N)NC2=O)C(=O)NCCCC[C@@H]2NC(=O)[C@@H](Cc3ccccc3)NC(=O)[C@H](CC(=O)O)NC(=O)CNC(=O)[C@H](CCCNC(=N)N)NC2=O)C(=O)NCCCC[C@@H]2NC(=O)[C@@H](Cc3ccccc3)NC(=O)[C@H](CC(=O)O)NC(=O)CNC(=O)[C@H](CCCNC(=N)N)NC2=O)NC(=O)[C@@H](Cc2ccccc2)NC(=O)[C@H](CC(=O)O)NC(=O)CNC1=O,"Integrin alpha-V/beta-3 (Homo sapiens, UniProt P05106+P06756)","ligand displacement, radioligand",,,0.0005 µM
CCCCCCCCCCCCC(O)C1CCC(C(O)CCCCCCCCCCCCC2=CC(C)OC2=O)O1 (centres unmarked),"MT-ND1/NDUFS2/NDUFS7, complex I (Bos taurus, UniProt P03887+P17694+P42026)","enzyme activity, inhibitor",,,5.5 µM
Nc1nc2c(c(=O)[nH]1)[n+](Cc1ccc(OS(=O)(=O)F)cc1)cn2[C@@H]1O[C@H](COP(=O)(O)O)[C@@H](O)[C@H]1O,"7-methylguanosine phosphate-specific 5'-nucleotidase (NT5C3B, Homo sapiens, UniProt Q969T7)","m7GMP dephosphorylation, inhibitor, malachite green",,"1 h preincubation, pH 7.5, 30 °C, added: m7GMP 100 µM",16.3 ± 2.9 µM
CC(C)[C@H](N)C(=O)N[C@@H](CCCNC(=N)N)C(=O)N[C@@H](Cc1ccc(O)cc1)C(=O)O,"Angiotensin-converting enzyme (ACE, Homo sapiens, UniProt P12821)","enzyme activity, inhibitor, absorbance",,,< 0.1 µM
CC[C@H](C)[C@H](NC(=O)[C@H](Cc1ccccc1)NC(=O)[C@@H]1CNC(=O)NCCCC[C@H](NC(=O)[C@H](CO)NC(=O)[C@H](CC(C)C)NC(=O)[C@H](CCCNC(=N)N)NC(=O)[C@H](CCSC)NC(=O)[C@H](C)N)C(=O)N[C@@H](Cc2ccccc2)C(=O)N[C@@H](Cc2ccccc2)C(=O)N[C@@H](CCCNC(=N)N)C(=O)N1)C(=O)N[C@@H](CC(C)C)C(=O)N[C@@H](CCC(N)=O)C(=O)N[C@@H](CCCNC(=N)N)C(=O)N[C@@H](CCCCN)C(=O)N[C@@H](CCCCN)C(=O)O,"histidine kinase ComD (Streptococcus pneumoniae serotype 2, UniProt A0A0H2ZM50)",,"Streptococcus pneumoniae cells, Streptococcus pneumoniae",,0.448 µM
Cc1cc(OCc2ccncc2)nc2sc(C(=O)NCc3cc(F)ccc3F)c(N)c12,"Histamine H3 receptor (HRH3, Homo sapiens, UniProt Q9Y5N1)","receptor activity, antagonist",,,~10 µM
NC(=O)c1cccc(CCN(CC[C@H](N)C(=O)O)C[C@H]2O[C@@H](n3cnc4c(N)ncnc43)[C@H](O)[C@@H]2O)c1,"RNA demethylase ALKBH5 (Homo sapiens, UniProt Q6P6C2)","RNA demethylase activity, inhibitor",,,> 50 µM
CP(=O)(O)CN,"Urease (Canavalia ensiformis, UniProt P07374)",inhibitor,,pH 7,> 1000 µM
CC[C@H](C)[C@H](NC(C)=O)C(=O)N[C@@H](C)C(=O)N[C@@H](CCC(=O)O)C(=O)N[C@@H](CCC(N)=O)C(=O)N[C@@H](CC(C)C)C(=O)N[C@@H](CCCNC(=N)N)C(=O)N[C@@H](CCCNC(=N)N)C(=O)N[C@H](C(=O)NCC(=O)N[C@@H](CC(=O)O)C(=O)N[C@@H](CCCNC(=N)N)C(=O)N[C@@H](Cc1ccc(O)cc1)C(N)=O)[C@@H](C)CC,"Induced myeloid leukemia cell differentiation protein Mcl-1 (MCL1, Homo sapiens, UniProt Q07820)","BIM BH3 peptide binding, inhibitor, DELFIA displacement",,2 h preincubation,0.21 µM
CC[C@H](C)[C@H](NC(=O)[C@H](C)NC(=O)[C@@H](NC(=O)[C@H](CC(=O)O)NC(=O)[C@H](CCCCN)NC(=O)[C@H](CO)NC(=O)[C@@H](NC(=O)[C@H](CC(N)=O)NC(=O)[C@H](C)NC(=O)[C@@H](NC(=O)[C@H](CCC(=O)O)NC(=O)[C@H](CCCCN)NC(=O)[C@@H](NC(=O)[C@@H](NC(=O)[C@H](Cc1c[nH]cn1)NC(=O)[C@H](CCCCN)NC(=O)[C@@H](NC(=O)[C@H](CCCCN)NC(=O)[C@H](CCCCN)NC(=O)[C@@H](NC(=O)[C@H](CC(C)C)NC(=O)[C@H](CCCCN)NC(=O)[C@H](CC(N)=O)NC(=O)[C@H](Cc1ccccc1)NC(=O)[C@H](CCCNC(=N)N)NC(=O)[C@H](CCCCN)NC(=O)[C@H](CCCNC(=N)N)NC(=O)[C@H](Cc1ccccc1)NC(=O)CN)C(C)C)C(C)C)[C@@H](C)O)[C@@H](C)CC)[C@@H](C)O)C(C)C)C(C)C)C(=O)N[C@H](C(=O)N[C@@H](C)C(=O)NCC(=O)N[C@@H](CO)C(=O)NCC(=O)N[C@H](C(=O)N[C@@H](C)C(=O)N[C@H](C(=O)NCC(=O)N[C@@H](C)C(=O)N[C@@H](C)C(=O)N[C@@H](CCSC)C(N)=O)C(C)C)C(C)C)C(C)C,"Voltage-gated inwardly rectifying potassium channel KCNH2 (KCNH2, Homo sapiens, UniProt Q12809)","ion current, inhibitor, patch clamp",,,> 30 µM
CC1(C)OC2OC(C(CCO)NCCCCCCCCCCNC(CCO)C3OC4OC(C)(C)OC4C3OCc3ccccc3)C(OCc3ccccc3)C2O1 (centres unmarked),"DNA ligase 1 (Homo sapiens, UniProt P18858)","enzyme activity, inhibitor, radiometric",,,72 µM
CC(=O)N[C@@H](CC(C)C)C(=O)N[C@@H](CCC(=O)O)C(=O)N[C@@H](CO)C(=O)N[C@@H](CC(=O)O)C(=O)CCl,"Caspase-4 (CASP4, Homo sapiens, UniProt P49662)","enzyme activity, inhibitor, fluorescence",,,59 µM
O=C(O)c1ccccc1-c1c2ccc(=O)c([As]3SCCS3)c-2oc2c([As]3SCCS3)c(O)ccc12,"Tyrosine-protein phosphatase non-receptor type 11 (PTPN11, Homo sapiens, UniProt Q06124)","enzyme activity, inhibitor, fluorescence",,pH 7,0.295 µM
F[P-](F)(F)(F)(F)F.OCP(CO)CO.OCP(CO)CO.OCP(CO)CO.OCP(CO)CO.[Cu+],"PSMB6/PSMB5/PSMB7 (Homo sapiens, UniProt P28072+P28074+Q99436)",chymotrypsin-like activity,26S proteasome from LoVo cells,,23 µM
COc1cc(-c2nn(C3CCC(N4CCN(C)CC4)CC3)c3ncnc(N)c23)ccc1NC(=O)OCc1ccccc1 (centres unmarked),"Calcium/calmodulin-dependent protein kinase type 1 (CAMK1, Homo sapiens, UniProt Q14012)","kinase activity, inhibitor",,"added: ATP 100 µM, MBP substrate",> 20 µM
CC(=O)OCc1cc(-c2nc3ccccc3n(-c3ccc([N+](=O)[O-])cc3[N+](=O)[O-])c2=O)nn1-c1ccccc1,"DNA gyrase (gyrA/gyrB, Escherichia coli, UniProt P0AES4+P0AES6)","enzyme activity, inhibitor",,,0.869 µM
O=C1C(O)=C(Nc2cccc(C(F)(F)F)c2)C(=O)c2ccccc21,"Dihydroorotate dehydrogenase (quinone), mitochondrial (DHODH, Homo sapiens, UniProt Q02127)","enzyme activity, inhibitor, absorbance",,,0.101 µM
